# Assay results collected from several papers.
# Each numbered part is a random draw from the data of one study; scales do not carry over between parts.

# Study 1
# Target: Histone acetyltransferase KAT6A, winged helix 2, GST fusion (KAT6A, Homo sapiens, UniProt Q92794, residues 85-181)
# Technique: protein binding microarray
# Form: double-stranded DNA, one strand shown
# Sample: in vitro
# Tested at: not given
# Setting: 8-mer, flanks averaged, mean of 2 arrays, mostly near background
# Reference: not given
# Reading: higher = stronger binding
# Residues (chain): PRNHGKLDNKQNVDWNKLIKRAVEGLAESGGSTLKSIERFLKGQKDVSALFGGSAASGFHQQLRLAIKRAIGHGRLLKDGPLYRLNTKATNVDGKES
Sequence,E-score
AGGAAAAC,-0.006
AGTCGCAA,-0.118
CGACGCAC,0.125

# Study 2
# Target: Sal-like protein 4, full length isoform A (SALL4, Homo sapiens, UniProt Q9UJQ4, residues 1-1053)
# Chain of UniProt Q9UJQ4 (whole entry, looked up): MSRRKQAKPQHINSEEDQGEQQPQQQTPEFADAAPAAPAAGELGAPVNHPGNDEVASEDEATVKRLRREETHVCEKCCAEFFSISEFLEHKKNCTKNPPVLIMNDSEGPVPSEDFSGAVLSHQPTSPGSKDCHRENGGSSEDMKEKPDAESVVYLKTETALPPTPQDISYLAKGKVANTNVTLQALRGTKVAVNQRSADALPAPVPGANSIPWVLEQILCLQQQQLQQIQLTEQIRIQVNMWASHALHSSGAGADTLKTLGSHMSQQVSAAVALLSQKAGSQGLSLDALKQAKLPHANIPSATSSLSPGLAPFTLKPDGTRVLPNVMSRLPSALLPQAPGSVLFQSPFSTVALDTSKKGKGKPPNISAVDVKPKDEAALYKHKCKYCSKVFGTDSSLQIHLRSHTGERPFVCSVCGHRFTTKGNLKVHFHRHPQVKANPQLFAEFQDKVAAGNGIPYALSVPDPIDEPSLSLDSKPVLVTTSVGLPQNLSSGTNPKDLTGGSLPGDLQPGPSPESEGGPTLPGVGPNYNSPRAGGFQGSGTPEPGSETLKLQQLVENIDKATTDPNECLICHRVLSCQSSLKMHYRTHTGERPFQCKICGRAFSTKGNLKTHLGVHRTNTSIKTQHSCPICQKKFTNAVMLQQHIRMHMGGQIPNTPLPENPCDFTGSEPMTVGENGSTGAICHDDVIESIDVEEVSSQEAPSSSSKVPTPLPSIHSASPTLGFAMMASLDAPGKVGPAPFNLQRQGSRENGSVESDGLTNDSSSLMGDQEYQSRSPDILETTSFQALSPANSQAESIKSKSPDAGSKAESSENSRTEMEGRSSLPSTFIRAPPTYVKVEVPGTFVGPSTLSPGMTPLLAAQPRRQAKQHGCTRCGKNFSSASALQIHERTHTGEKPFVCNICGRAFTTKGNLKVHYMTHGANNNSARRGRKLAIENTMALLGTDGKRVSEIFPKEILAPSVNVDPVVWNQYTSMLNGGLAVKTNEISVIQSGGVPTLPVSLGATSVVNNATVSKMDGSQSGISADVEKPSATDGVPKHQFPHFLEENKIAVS
# Technique: universal PBM
# Form: double-stranded DNA, one strand shown
# Sample: in vitro
# Tested at: 600 nM
# Setting: 8-mer, flanks averaged, mean of replicates
# Reading: higher = stronger binding
Sequence,E-score
AATTTCGC,0.0987
AAACAATG,0.216
ATGCTCAC,0.00071

# Mixed results
# WRKY50 DNA-binding domain: Probable WRKY transcription factor 50, DNA-binding domain (WRKY50, Arabidopsis thaliana, UniProt Q8VWQ5, residues 99-173)
# Chain of UniProt Q8VWQ5 (99-173, looked up): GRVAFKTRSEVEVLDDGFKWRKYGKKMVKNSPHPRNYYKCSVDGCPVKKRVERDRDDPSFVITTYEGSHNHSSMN
Molecule,target,assay,test system,setting,scale,endpoint,value
AAAAAACTGGATGCGCTCACCAGTTAAAAA,WRKY50 DNA-binding domain,DNA-protein interaction ELISA,"double-stranded DNA, one strand shown, in vitro, bacterial lysate","not given, whole dsDNA probe, crude lysate protein","reference: highest signal in screen, higher = stronger binding",relative absorbance,12.6 % of maximum
"PhoQ, residues 284 288 289 292 302 303 SIHMAM","PhoP, residues 12 14 15 18 19 NMSSL (Escherichia coli, UniProt P23836)","Sort-seq, refers to: YFP reporter",E. coli,"PhoQ-PhoP variant library, added: 10 µM Mg2+","reference: high Mg2+ state, higher = stronger signaling",fold induction,2.86
AAAAAAGTCATTATAACCCAAACTCTAAAA,WRKY50 DNA-binding domain,DNA-protein interaction ELISA,"double-stranded DNA, one strand shown, in vitro, bacterial lysate","not given, whole dsDNA probe, crude lysate protein","reference: highest signal in screen, higher = stronger binding",relative absorbance,42.7 % of maximum
